Measured values collected from several papers.
Several values in a cell are separate wells, animals, samples, runs or records. Numbers after ± are the reported error.

`O=C(O)CNCP(=O)(O)O`: “milk fat partition ratio” 0.16 (cow whole milk; 20 nM; baseline: milk fat over skim milk).
`CN1CCN(S(=O)(=O)c2cc([N+](=O)[O-])ccc2N(CCOS(C)(=O)=O)CCOS(C)(=O)=O)CC1` has an alkaline phosphatase of 74 U/L (naive NOD/SCID mice, pooled blood; intraperitoneal, 18.8 mg/kg, week 4).
`CCCCCCCCCCCCCCCC(=O)N[C@@H](CCC(=O)NCCCC[C@H](NC(=O)[C@H](CC(=O)O)NC(=O)[C@H](CO)NC(=O)[C@@H](NC(=O)[C@H](Cc1ccccc1)NC(=O)[C@@H](NC(=O)CNC(=O)[C@H](CCC(N)=O)NC(=O)[C@H](CO)NC(=O)[C@@H](N)Cc1c[nH]cn1)[C@@H](C)O)[C@@H](C)O)C(=O)N[C@@H](CO)C(=O)N[C@@H](CCC(=O)O)C(=O)N[C@@H](Cc1ccc(O)cc1)C(=O)N[C@@H](CC(C)C)C(=O)N[C@@H](CC(=O)O)C(=O)N[C@@H](CO)C(=O)N[C@@H](CCC(=O)O)C(=O)N[C@@H](CCCNC(=N)N)C(=O)N[C@@H](C)C(=O)N[C@@H](CCCNC(=N)N)C(=O)N[C@@H](CC(=O)O)C(=O)N[C@@H](Cc1ccccc1)C(=O)N[C@H](C(=O)N[C@@H](C)C(=O)N[C@@H](Cc1c[nH]c2ccccc12)C(=O)N[C@@H](CC(C)C)C(=O)N[C@@H](CCC(=O)O)C(=O)N[C@@H](C)C(=O)NCC(=O)NCC(=O)O)C(C)C)C(=O)O` gave a decreased appetite of 0% (human, CrCl < 20 mL/min; sc, 100 µg single dose).
`CN(C(=O)n1cnc(-c2ccc[n+]([O-])c2)c1)C1CCCCC1` gave a concentration of 93.8 ± 2.5 nM (culture medium without cells; 100 nM, 1 h).
`COc1ccc(-c2c(-c3ccc(C#N)c(F)c3)nc(N3CCC(N)CC3)n(C)c2=O)cc1F`: “serious adverse event incidence” 0% (item: Cholecystitis; human patients; oral, 60 mg, dose expansion).
Under “vessel puncture site pain”, `Cn1c(-c2ccc(C(N)=O)cc2F)nnc1C(C)(C)Oc1c(F)cc(Cl)cc1F` is recorded as 0% (human; oral, 1 mg, single ascending dose).
`C=CCNc1c(O)cc2c(O)c1C[C@@H](C)C[C@H](OC)[C@H](O)[C@@H](C)/C=C(\C)[C@H](OC(N)=O)[C@@H](OC)/C=C\C=C(/C)C(=O)N2` — result for “patients with diarrhoea TEAE”: 33% (unresectable or metastatic STS, GIST, other; intravenous, 225 mg/m^2).
`O=C(Nc1ccccc1)C1CCN(C(=O)Oc2cccnc2)CC1` — result for “subjects with feeling drunk”: 38.5% (adverse event reporting; healthy women; oral, 100 mg, 9 days).
For `[O-][S+]1CCc2nc(N3CCC(c4ncc(Cl)cn4)CC3)nc(NC3(CO)CCC3)c21` (stereo not drawn), “adverse event incidence” read 12.5% (item: oral hypoaesthesia; healthy male humans; 12 mg twice daily).
`COc1cc2c(Oc3ccc4[nH]c(C)cc4c3F)ccnc2cc1OCC1(N)CC1` — result for “grade 3 Anorexia”: 0% (paediatric recurrent refractory sarcoma; 12 mg).
`C=C(CN(C(=O)c1c(C(F)F)nn(C)c1F)C1CC1)c1ccc(Cl)cc1Cl` gave a mortality of 0% (static acute toxicity test; zebrafish (Brachydanio rerio); 0.578 mg a.i./L, 6 h).
The total protein of `CCc1ccc(CC/C=C/c2ccc3c(c2)C(=O)CC3)cc1` is reported as 63 g/L (Sprague-Dawley rat, female, serum; oral, 120 mg/kg/day, 14 days).
For `CCCCCOc1ccc(-c2ccc(-c3ccc(C(=O)N[C@H]4C[C@@H](O)[C@@H](OCC[N+](C)(C)C)NC(=O)[C@@H]5[C@@H](O)[C@@H](C)CN5C(=O)[C@H]([C@@H](C)O)NC(=O)[C@H]([C@H](O)[C@@H](O)c5ccc(O)cc5)NC(=O)[C@@H]5C[C@@H](O)CN5C(=O)[C@H]([C@@H](C)O)NC4=O)cc3)cc2)cc1`, the Cmax was 18600 ng/mL (adult patients in ICU, plasma; intravenous, 400 mg loading, after first dose, mean).
Under CSF concentration, `OCCc1ccc(O)c(O)c1` is recorded as “not detected” (human CSF; concentration not given, mean).
For `CN(C)C1(CNC(=O)c2ccc3c(c2)CCN3C(=O)c2ccccc2)CCOCC1`, “unbound plasma concentration” read 153 nM (C57BL/6 mice, male, plasma; intraperitoneal, 50 mg/kg, 120 min).
For `COc1ccc2nc3cc(Cl)ccc3c(Nc3cc(CN4CCCC4)c(O)c(CN4CCCC4)c3)c2n1`, the basophil count was 0.18 10⁹/L (mouse, blood; intraperitoneal, 14 mg/kg).
`O=S(=O)(Nc1ccccc1)c1ccc(NC(=S)Nc2ccccc2)cc1` — result for “serum enzyme activity”: 157 U/L (item: ALKP; female mouse, blood; oral, 80 mg/kg daily, 14 days).
`C[C@]1(CO)Cc2ncn(-c3ccc(C#N)c(Cl)c3)c2C(=O)O1` — result for “drug-related adverse event incidence”: 33.3% (Japanese subjects; 20 mg single dose).
The organ weight of `Clc1ccc(Cl)c(-c2cc(Cl)ccc2Cl)c1` is reported as 6.78 g (Sprague Dawley rat, liver; intraperitoneal, 10 mg/kg).
For `O=C1CN=C(c2ccccc2)c2cc(/N=N/c3ccc(S(=O)(=O)O)cc3)ccc2N1`, “cis isomer at photostationary state” read 88% (HPLC; DMSO; 50 µM, together with: 365 nm irradiation).
For `CC(=O)c1c(C)c2cnc(Nc3ccc(C4CCN(CCS(C)(=O)=O)CC4)cn3)nc2n(C2CCCC2)c1=O`, “patients with GGT increased” read 2.5% (HR+/HER2- advanced breast cancer patients; oral, dose not given, grade 3/4,, sample A patients).
`CC[C@H](C)[C@H](NC(=O)CN)C(=O)NCC(=O)N[C@@H](CCCCN)C(=O)N[C@@H](Cc1ccccc1)C(=O)N[C@@H](CC(C)C)C(=O)N[C@@H](CCCCN)C(=O)N[C@@H](CCCCN)C(=O)N[C@@H](C)C(=O)N[C@@H](CCCCN)C(=O)N[C@@H](CCCCN)C(=O)N[C@@H](Cc1ccccc1)C(=O)NCC(=O)N[C@@H](CCCCN)C(=O)N[C@@H](C)C(=O)N[C@@H](Cc1ccccc1)C(=O)N[C@H](C(=O)N[C@@H](CCCCN)C(=O)N[C@H](C(=O)N[C@@H](CC(C)C)C(=O)N[C@@H](CCCCN)C(=O)N[C@@H](CCCCN)C(N)=O)[C@@H](C)CC)C(C)C`: “elution acetonitrile content” 46.9% (reversed-phase UPLC; C18 column, TFA).
For `NC(=O)[C@H]1CCN(c2ncnc(N)c2F)C[C@@H]1N1CCC[C@@H](Nc2cc(Cl)cc(C(F)(F)F)c2)C1=O`, “grade ≥3 thrombocytopenia” read 67% (B-cell malignancy patients; oral, 20.5 mg twice daily, dose).
For `CC(C)C[C@H](NC(=O)[C@H](CCCCN)NC(=O)OCC1c2ccccc2-c2ccccc21)C(=O)N[C@H](C(=O)N[C@@H](Cc1ccccc1)C(=O)N[C@@H](Cc1ccccc1)C(=O)N[C@@H](CCCCN)C(=O)NCC(=O)N[C@@H](Cc1ccccc1)C(=O)N[C@@H](C)C(=O)N[C@@H](Cc1c[nH]c2ccccc12)C(=O)N[C@@H](CC(N)=O)C(=O)N[C@H](C(=O)N[C@H]1CSSC[C@@H](C(=O)N[C@@H](Cc2c[nH]cn2)C(=O)N[C@@H](CCCNC(=N)N)C(=O)N[C@@H](CCCNC(=N)N)C(=O)N[C@@H](C)C(=O)N[C@@H](CC(N)=O)C(N)=O)NC(=O)[C@H](C(C)C)NC(=O)[C@H](CCCNC(=N)N)NC(=O)[C@H](C(C)C)NC(=O)CNC(=O)[C@H](CC(N)=O)NC(=O)[C@H](CCCNC(=N)N)NC(=O)[C@H](Cc2ccc(O)cc2)NC(=O)[C@H](C(C)C)NC1=O)C(C)C)C(C)C`, the creatinine was 82.6 ± 3.33 µmol/L (ICR mouse, blood; intramammary, 10 mg/kg, day 5, 3 d dosing).
The drug concentration of `COc1ncccc1-c1cnn2ccc(N3CCN(C(=O)OC(C)C)CC3)nc12` is reported as 15000 nM (mouse, open field test, plasma; oral, 60 mg/kg, 60 min).
`C[C@H]1CN(C(=O)CC#N)[C@]12CCN(c1ncnc3[nH]ccc13)C2`: “AUC at NOAEL” 9900 ng·h/mL (dog, male; oral, 3 mg/kg repeated, 3 months).
`O=S(=O)([O-])C(F)(F)C(F)(F)C(F)(F)C(F)(F)C(F)(F)C(F)(F)C(F)(F)C(F)(F)F.[K+]` — result for mRNA level: “increased” (RT-qPCR, item: Cyp3a11; mouse, ethanol-fed, liver; dose not given; baseline: efavirenz).
With `CCN1[C@@H](C(=O)NC23CCC(C(=O)O)(CC2)CC3)[C@H](c2cccc(Cl)c2F)[C@]2(C(=O)Nc3cc(Cl)ccc32)C12CCCCC2` the Lymphocytopenia incidence was 62.5% (patients with advanced solid tumours; oral, 150 mg).
`C=CC(=O)N1CC[C@H](n2nc(C#Cc3cc(OC)cc(OC)c3)c3c(N)ncnc32)C1` — result for “adverse drug reaction incidence”: 100% (patients with advanced solid tumours; oral, dose not given, Hyperphosphatemia, any grade, QD, together with: ferric citrate hydrate).
`CC[C@H](C)[C@H](NC(=O)[C@H](Cc1ccccc1)NC(=O)[C@H](CCC(=O)O)NC(=O)[C@H](CCCNC(=N)N)NC(=O)[C@H](C)NC(=O)[C@H](C)NC(=O)[C@H](CCC(N)=O)NC(=O)[C@H](CCC(=O)O)NC(=O)[C@H](CCC(=O)O)NC(=O)[C@H](CC(C)C)NC(=O)[C@H](Cc1ccc(O)cc1)NC(=O)[C@H](CO)NC(=O)[C@H](CO)NC(=O)[C@@H](NC(=O)[C@H](CC(=O)O)NC(=O)[C@H](CO)NC(=O)[C@@H](NC(=O)[C@H](Cc1ccccc1)NC(=O)[C@@H](NC(=O)CNC(=O)[C@H](CCC(=O)O)NC(=O)[C@H](C)NC(=O)CCc1cnc[nH]1)[C@@H](C)O)[C@@H](C)O)C(C)C)C(=O)N[C@@H](C)C(=O)N[C@@H](Cc1c[nH]c2ccccc12)C(=O)N[C@@H](CC(C)C)C(=O)N[C@H](C(=O)N[C@@H](CCCNC(=N)N)C(=O)NCC(=O)N[C@@H](CCCNC(=N)N)C(=O)N[C@@H](CCCCNC(=O)COCCOCCNC(=O)COCCOCCNC(=O)CC[C@H](NC(=O)CCCCCCCCCCCCCCCCC(=O)O)C(=O)O)C(=O)NCC(=O)NCC(=O)N[C@@H](CO)C(=O)N[C@@H](CCCCNC(=O)[C@H](CCCCNc1c(NCCCCCN(O)C(=O)CCC(=O)NCCCCCN(O)C(=O)CCC(=O)NCCCCCN(O)C(C)=O)c(=O)c1=O)Nc1c(NCCCCCN(O)C(=O)CCC(=O)NCCCCCN(O)C(=O)CCC(=O)NCCCCCN(O)C(C)=O)c(=O)c1=O)C(=O)O)C(C)C` [zirconium-89 labelled] has a tissue uptake of 0.584 %ID/g and 0.619 %ID/g and 0.656 %ID/g and 0.56 %ID/g and 0.583 %ID/g (ex vivo gamma counting; Sprague-Dawley rat, male, spleen; intravenous, 1 nmol, 24 h).
For `Cn1cc(-c2nc(N[C@@H]3CCCC[C@@H]3N)c(F)c3c2C(=O)NC3)cn1`, “hemorrhagic adverse events” read 11% (item: Gastrointestinal haemorrhage; patients with relapsed or refractory AML; oral, 160 mg once daily).
Under “incidence of serious AEs”, `C[C@@H](NC(=O)N1C(=O)[C@H](Cc2ccnc(N)c2)[C@H]1C(=O)O)C1CCCCC1` is recorded as 0% (healthy adult Chinese volunteers; continuous intravenous infusion, 0.6 mg/kg/h, 5-day infusion, CTCAE 5.0 grading).
For `[Cl][212Pb][Cl]`, the tissue uptake was 0.17 ± 0.02 %ID/g (athymic mice, C4-2 xenograft, muscle; intravenous, 2 h, 212Pb-labelled).
For `O=C(O)CCCOc1ccc(F)cc1-c1cc(-c2ccccc2C(F)(F)F)n(-c2ccccc2)n1`, “relative organ weight” read 39.8 ± 6.9 mg% (item: ovaries; Crl:CD(SD) rats, female; iv, 25 µg/kg, 1 day).
For `CO[C@H]1C[C@@H]2CC[C@@H](C)[C@@](O)(O2)C(=O)C(=O)N2CCCC[C@H]2C(=O)O[C@H]([C@H](C)C[C@@H]2CC[C@@H](OC(=O)NCCOCCOCCOCCOCCOCCOCCOCCOCCC(=O)N3CCc4cc(Cn5nc(-c6ccc7oc(N)nc7c6)c6c(N)ncnc65)ccc4C3)[C@H](OC)C2)C[C@@H](O)[C@H](C)/C=C(\C)[C@@H](O)[C@@H](OC)C(=O)[C@H](C)C[C@H](C)/C=C/C=C/C=C/1C`, “AEs leading to dose reduction” read 10.5% (dose-escalation trial; patients with advanced solid tumours; intravenous, all doses weekly, any grade).
Under “serious TEAE, intestinal obstruction”, `CCNCCCNC/C=C\CNCCCNCC` is recorded as 6.5% (human, advanced solid tumours; intravenous, dose not given; baseline: patients).
